{"data": "Experimental data of several laboratories", "note": "Parts stem from different laboratories: compare values within a part only. Substitutions count along the parent as printed."}
{"data": "Sample 1", "target": "Centromere-binding protein 1, full length, N-terminal tag (CBF1, Saccharomyces cerevisiae, UniProt P17106, residues 1-351)", "technique": "protein-binding microarray", "molecule type": "double-stranded DNA, one strand shown", "matrix": "in vitro", "concentration": "0.8 µM", "notes": "whole 60-bp probe, no competitor", "reading": "higher = stronger binding", "sequence of UniProt P17106 (whole entry, looked up)": "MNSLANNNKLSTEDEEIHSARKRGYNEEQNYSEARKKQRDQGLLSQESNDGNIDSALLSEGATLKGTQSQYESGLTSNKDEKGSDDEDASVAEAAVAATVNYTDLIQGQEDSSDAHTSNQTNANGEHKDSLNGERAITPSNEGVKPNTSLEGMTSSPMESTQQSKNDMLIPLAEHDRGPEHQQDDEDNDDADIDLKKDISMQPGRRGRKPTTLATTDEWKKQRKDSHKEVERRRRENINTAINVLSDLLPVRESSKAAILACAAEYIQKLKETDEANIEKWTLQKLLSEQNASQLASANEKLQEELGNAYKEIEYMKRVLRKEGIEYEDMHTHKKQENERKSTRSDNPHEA"}
{"Oligonucleotide": "CTATGGAGTCTTCACCATCAGCATCGTCCTCATTTCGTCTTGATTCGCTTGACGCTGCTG", "fluorescence intensity": "498 a.u."}
{"Oligonucleotide": "CTAATCAAGCCTATACACGTTTATTGCACACTCTTCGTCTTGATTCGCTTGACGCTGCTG", "fluorescence intensity": "559 a.u."}
{"Oligonucleotide": "CCTAACTACTATAATCACGTGCCATAGCTTCGTACAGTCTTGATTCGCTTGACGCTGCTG", "fluorescence intensity": "16100 a.u."}
{"Oligonucleotide": "CTAAGCTTATAGAAGCACGTGACCACAATTCACTTCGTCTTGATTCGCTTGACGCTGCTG", "fluorescence intensity": "30200 a.u."}
{"Oligonucleotide": "CTAATAGTTACTGATCAGGTGATGAGACGATAATTCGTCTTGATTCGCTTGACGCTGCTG", "fluorescence intensity": "4350 a.u."}
{"Oligonucleotide": "CTAGTTAGTGTAAGCGGTCAGGTGTAAGTAGTATTCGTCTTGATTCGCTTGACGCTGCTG", "fluorescence intensity": "1250 a.u."}
{"Oligonucleotide": "TGTACGAAGCTATCTCAGGTGACTATAGTAGTTAGGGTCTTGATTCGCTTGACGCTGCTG", "fluorescence intensity": "1010 a.u."}
{"Oligonucleotide": "TGTACGAAGCTATATGGTCAGATTATAGTAGTTAGGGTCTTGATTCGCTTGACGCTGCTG", "fluorescence intensity": "558 a.u."}
{"Oligonucleotide": "TGTACGAAGCTATGTCATGTAAGTATAGTAGTTAGGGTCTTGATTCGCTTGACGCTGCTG", "fluorescence intensity": "539 a.u."}
{"Oligonucleotide": "CTAGAATTAAGAGAGCACACGAAGTTACTGCACTTCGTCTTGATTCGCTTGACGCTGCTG", "fluorescence intensity": "498 a.u."}
{"Oligonucleotide": "CCTAACTACTATATCTTCGTGCAATAGCTTCGTACAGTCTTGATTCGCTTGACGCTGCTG", "fluorescence intensity": "519 a.u."}
{"Oligonucleotide": "CTACATTCAGTGCGTCACGACGCGAATAGGGCTTTCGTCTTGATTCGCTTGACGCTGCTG", "fluorescence intensity": "621 a.u."}
{"Oligonucleotide": "GAAAGTGACTAGTGACTGGTGACGACATGAGCCTAGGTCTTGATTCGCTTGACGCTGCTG", "fluorescence intensity": "545 a.u."}
{"Oligonucleotide": "GAACAGATTCCCGCGGACGTGGGAAGGAAAAAATAGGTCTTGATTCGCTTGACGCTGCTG", "fluorescence intensity": "511 a.u."}
{"Oligonucleotide": "CTATTAAAACATTGTGACCCAAATATCACAAATTTCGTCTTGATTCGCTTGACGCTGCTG", "fluorescence intensity": "667 a.u."}
{"Oligonucleotide": "CTACGTTACCAACGTCACCTCCCCAAGCTCTTGTTCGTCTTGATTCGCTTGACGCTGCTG", "fluorescence intensity": "473 a.u."}
{"Oligonucleotide": "GAACTAAATATTGAACACGTTAAAAATAAGTTCTAGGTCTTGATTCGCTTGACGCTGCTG", "fluorescence intensity": "610 a.u."}
{"Oligonucleotide": "CTAGCAACAAATACATGTGAGCTTAGAAAGATATTCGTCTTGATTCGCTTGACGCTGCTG", "fluorescence intensity": "657 a.u."}
{"Oligonucleotide": "GAACTTTCTTAGCCTCATGACTTATCTGCTCTTTAGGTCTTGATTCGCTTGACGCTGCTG", "fluorescence intensity": "668 a.u."}
{"data": "Sample 2", "target": "ABI1, truncated, D143A, DHFR fusion (Arabidopsis thaliana)", "technique": "DHFR PCA, deep sequencing", "matrix": "yeast", "notes": "methotrexate growth selection, single substitutions", "added": "(+)-ABA 710 µM", "baseline": "wild-type fitted maximum", "reading": "higher = stronger binding", "parent": "PYL1, truncated, DHFR fusion (Arabidopsis thaliana); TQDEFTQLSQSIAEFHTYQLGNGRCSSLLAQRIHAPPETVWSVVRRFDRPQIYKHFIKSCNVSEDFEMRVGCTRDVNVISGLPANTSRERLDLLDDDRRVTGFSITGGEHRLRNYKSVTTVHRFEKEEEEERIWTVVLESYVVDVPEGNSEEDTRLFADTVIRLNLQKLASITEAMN; partner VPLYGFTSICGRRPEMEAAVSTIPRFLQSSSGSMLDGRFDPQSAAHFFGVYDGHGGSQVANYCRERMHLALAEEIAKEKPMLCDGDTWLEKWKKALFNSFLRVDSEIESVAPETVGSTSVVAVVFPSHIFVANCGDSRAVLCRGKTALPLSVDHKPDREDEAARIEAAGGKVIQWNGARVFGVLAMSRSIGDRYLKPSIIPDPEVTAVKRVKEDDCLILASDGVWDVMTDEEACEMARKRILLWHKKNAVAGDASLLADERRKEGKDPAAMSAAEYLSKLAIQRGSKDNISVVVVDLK"}
{"Change": "S26D", "relative binding score": "86%"}
{"Change": "D65N", "relative binding score": "95.5%"}
{"Change": "V62F", "relative binding score": "93.5%"}
{"Change": "L164N", "relative binding score": "101%"}
{"Change": "S171N", "relative binding score": "96.2%"}
{"Change": "H55G", "relative binding score": "106%"}
{"Change": "P36Q", "relative binding score": "95.1%"}
{"Change": "M68D", "relative binding score": "90.9%"}
{"Change": "E14Q", "relative binding score": "103%"}
{"Change": "G107K", "relative binding score": "88.5%"}
{"Change": "C72H", "relative binding score": "97.1%"}
{"Change": "L28C", "relative binding score": "92%"}
{"Change": "R24M", "relative binding score": "99.5%"}
{"Change": "D48R", "relative binding score": "69.4%"}
{"Change": "L169A", "relative binding score": "14.1%"}
{"Change": "I162P", "relative binding score": "9.12%"}
{"Change": "K116F", "relative binding score": "61.5%"}
{"Change": "V121W", "relative binding score": "1.71%"}
{"Change": "R74P", "relative binding score": "-0.483%"}
{"data": "Sample 3", "target": "Interferon regulatory factor 5, full length, phosphomimetic (IRF5, Homo sapiens, UniProt Q13568-2, residues 1-514, S451D/S453D/S456D/S462D)", "technique": "protein-binding microarray", "molecule type": "double-stranded DNA, one strand shown", "matrix": "in vitro", "concentration": "940 nM top", "notes": "60-bp whole probe", "added": "salmon DNA 0.4 mg/ml", "baseline": "random background probes", "reading": "higher = stronger binding", "shared flanks, not repeated": "GCCTAGCAC … GTCTTGATTCGCTTGACGCTGCTG"}
{"Oligonucleotide": "TTGATAATTTTTTTCTAAGTGTGCTAG", "fitted relative affinity": "0.14 z-score"}
{"Oligonucleotide": "TTAGGGCTGGACTTTCGGTTAGTGCTA", "fitted relative affinity": "2.14 z-score"}
{"Oligonucleotide": "GACTGTCTCGGTCTCGGGACGTGCTAG", "fitted relative affinity": "3.72 z-score"}
{"Oligonucleotide": "GTAGATTTCAGACTGGATTAGTGCTAG", "fitted relative affinity": "-0.268 z-score"}
{"Oligonucleotide": "TCAAATTTATAAATAAAACTGTGCTAG", "fitted relative affinity": "0.0284 z-score"}
{"Oligonucleotide": "GACGGTTCCCTTTGCCTGACGTGCTAG", "fitted relative affinity": "0.33 z-score"}
{"Oligonucleotide": "TCAATTCTCGGGACTCACACTGTGCTA", "fitted relative affinity": "1.98 z-score"}
{"Oligonucleotide": "TTAGATCTCAGTCGCGATTAGTGCTAG", "fitted relative affinity": "0.548 z-score"}
{"Oligonucleotide": "TTAGGCTTCGGGACTGGGTTAGTGCTA", "fitted relative affinity": "-0.261 z-score"}
{"Oligonucleotide": "GACGATTTAAGACTGGAGACGTGCTAG", "fitted relative affinity": "-0.303 z-score"}
{"Oligonucleotide": "TTCGATTTCAGTTTCGATTAGTGCTAG", "fitted relative affinity": "9.4 z-score"}
{"Oligonucleotide": "TTAGGTATCGCCTATCGGTTAGTGCTA", "fitted relative affinity": "3.76 z-score"}
{"Oligonucleotide": "GACCGTATCGGTCTCGGGACGTGCTAG", "fitted relative affinity": "5.05 z-score"}
{"Oligonucleotide": "TTAGATCTCAGTTGCGATTAGTGCTAG", "fitted relative affinity": "0.939 z-score"}
{"Oligonucleotide": "TCAAGTCTTGTTTTACAACTGTGCTAG", "fitted relative affinity": "0.199 z-score"}
{"Oligonucleotide": "TTAGGTTTCAGTATCGGTTAGTGCTAG", "fitted relative affinity": "8.52 z-score"}
{"Oligonucleotide": "TCATCTCTGAAGACTCTCACTGTGCTA", "fitted relative affinity": "1.19 z-score"}
{"Oligonucleotide": "GACTGTATCGGTATCGGGACGTGCTAG", "fitted relative affinity": "4.79 z-score"}
{"data": "Sample 4", "target": "CCNE1, cyclin fold, Cln2 fusion (human)", "technique": "yeast growth competition, sequencing", "matrix": "yeast", "notes": "strong parent motif", "baseline": "not given", "reading": "higher = stronger binding", "parent": "REPIN1 docking peptide (human); QSFRGWVALVLHL"}
{"Change": "QAFRGWVALVLHL [S2A]", "normalised enrichment score": 1.1}
{"Change": "QSARGWVALVLHL [F3A]", "normalised enrichment score": 1.05}
{"Change": "QSFRGWAALVLHL [V7A]", "normalised enrichment score": 1.81}
{"Change": "QSFRGWVALVAHL [L11A]", "normalised enrichment score": 1.5}
{"Change": "ASFRGWVALVLHL [Q1A]", "normalised enrichment score": 1.14}
{"Change": "QSFRGWVAAVLHL [L9A]", "normalised enrichment score": 0.649}
